# Assay results collected from several papers.
# Parts stem from different laboratories: compare values within a part only.
# Sequence of UniProt Q09013 (whole entry, looked up): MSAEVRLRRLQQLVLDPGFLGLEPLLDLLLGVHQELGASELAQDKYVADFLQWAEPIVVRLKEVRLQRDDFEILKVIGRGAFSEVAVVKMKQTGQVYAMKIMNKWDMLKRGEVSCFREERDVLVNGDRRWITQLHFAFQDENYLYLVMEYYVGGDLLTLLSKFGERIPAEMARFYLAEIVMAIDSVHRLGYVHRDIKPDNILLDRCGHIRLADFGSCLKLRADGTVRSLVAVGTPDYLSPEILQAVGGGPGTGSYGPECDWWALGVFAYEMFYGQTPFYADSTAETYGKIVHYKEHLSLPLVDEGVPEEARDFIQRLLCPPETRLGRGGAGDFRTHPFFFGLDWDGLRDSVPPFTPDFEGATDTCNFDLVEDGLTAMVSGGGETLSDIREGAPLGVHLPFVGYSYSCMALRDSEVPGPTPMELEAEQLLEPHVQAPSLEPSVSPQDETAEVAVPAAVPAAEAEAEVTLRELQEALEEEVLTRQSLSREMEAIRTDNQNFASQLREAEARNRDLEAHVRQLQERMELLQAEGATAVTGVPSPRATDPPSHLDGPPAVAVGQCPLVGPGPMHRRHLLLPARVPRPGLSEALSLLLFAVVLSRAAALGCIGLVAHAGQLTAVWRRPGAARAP
# Sequence of UniProt P42681 (whole entry, looked up): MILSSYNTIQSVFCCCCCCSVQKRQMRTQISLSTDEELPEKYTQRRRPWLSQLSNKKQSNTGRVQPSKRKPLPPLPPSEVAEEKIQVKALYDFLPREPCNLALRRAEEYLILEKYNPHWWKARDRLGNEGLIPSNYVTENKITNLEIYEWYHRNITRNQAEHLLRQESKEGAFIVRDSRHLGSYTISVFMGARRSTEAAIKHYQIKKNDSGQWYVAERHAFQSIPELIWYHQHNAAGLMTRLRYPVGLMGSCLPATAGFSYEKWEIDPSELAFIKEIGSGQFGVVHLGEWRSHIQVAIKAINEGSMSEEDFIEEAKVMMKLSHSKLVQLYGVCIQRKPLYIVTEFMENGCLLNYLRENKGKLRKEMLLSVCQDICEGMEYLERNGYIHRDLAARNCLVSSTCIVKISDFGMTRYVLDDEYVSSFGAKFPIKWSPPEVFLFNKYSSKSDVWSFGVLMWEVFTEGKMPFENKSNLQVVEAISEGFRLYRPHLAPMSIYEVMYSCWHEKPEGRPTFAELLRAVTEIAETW
# Sequence of UniProt Q6ZN16 (whole entry, looked up): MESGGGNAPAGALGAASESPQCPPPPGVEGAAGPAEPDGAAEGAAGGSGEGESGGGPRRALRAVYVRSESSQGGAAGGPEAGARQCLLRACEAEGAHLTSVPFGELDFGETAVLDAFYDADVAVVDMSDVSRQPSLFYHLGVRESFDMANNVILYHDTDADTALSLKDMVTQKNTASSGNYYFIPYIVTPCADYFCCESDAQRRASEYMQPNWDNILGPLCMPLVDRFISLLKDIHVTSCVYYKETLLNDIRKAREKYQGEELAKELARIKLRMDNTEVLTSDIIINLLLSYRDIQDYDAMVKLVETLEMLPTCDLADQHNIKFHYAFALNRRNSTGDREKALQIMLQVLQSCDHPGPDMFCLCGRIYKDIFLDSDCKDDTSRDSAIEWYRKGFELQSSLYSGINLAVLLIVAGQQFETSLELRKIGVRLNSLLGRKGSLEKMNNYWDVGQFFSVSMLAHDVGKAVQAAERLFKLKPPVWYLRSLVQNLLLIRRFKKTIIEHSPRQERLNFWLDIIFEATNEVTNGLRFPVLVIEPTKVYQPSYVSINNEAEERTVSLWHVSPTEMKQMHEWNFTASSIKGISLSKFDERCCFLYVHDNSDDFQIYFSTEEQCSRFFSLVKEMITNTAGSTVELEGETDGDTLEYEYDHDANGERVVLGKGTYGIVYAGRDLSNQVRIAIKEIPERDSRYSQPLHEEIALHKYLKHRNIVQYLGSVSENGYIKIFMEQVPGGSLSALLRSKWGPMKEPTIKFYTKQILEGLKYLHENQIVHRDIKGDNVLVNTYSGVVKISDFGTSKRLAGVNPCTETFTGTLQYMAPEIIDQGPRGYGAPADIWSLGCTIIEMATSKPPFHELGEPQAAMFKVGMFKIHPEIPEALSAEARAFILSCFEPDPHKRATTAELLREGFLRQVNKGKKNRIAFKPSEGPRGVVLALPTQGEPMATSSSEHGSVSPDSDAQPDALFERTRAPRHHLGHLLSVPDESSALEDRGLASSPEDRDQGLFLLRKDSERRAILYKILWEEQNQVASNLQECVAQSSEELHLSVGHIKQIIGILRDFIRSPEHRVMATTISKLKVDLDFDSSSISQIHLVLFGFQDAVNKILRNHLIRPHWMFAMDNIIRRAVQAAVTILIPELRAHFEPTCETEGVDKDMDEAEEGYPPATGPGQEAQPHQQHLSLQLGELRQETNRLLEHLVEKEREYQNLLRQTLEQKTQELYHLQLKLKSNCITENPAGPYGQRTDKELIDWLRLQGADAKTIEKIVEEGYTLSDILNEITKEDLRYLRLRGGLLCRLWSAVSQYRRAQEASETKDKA
# Sequence of UniProt O75716 (whole entry, looked up): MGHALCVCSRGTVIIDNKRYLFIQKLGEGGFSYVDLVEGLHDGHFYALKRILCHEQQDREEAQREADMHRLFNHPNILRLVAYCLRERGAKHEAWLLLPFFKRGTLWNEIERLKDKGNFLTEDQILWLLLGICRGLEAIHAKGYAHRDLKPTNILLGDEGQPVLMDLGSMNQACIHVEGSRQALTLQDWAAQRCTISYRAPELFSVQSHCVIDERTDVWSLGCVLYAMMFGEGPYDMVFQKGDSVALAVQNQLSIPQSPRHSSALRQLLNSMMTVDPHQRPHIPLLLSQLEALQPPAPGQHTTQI
# Sequence of UniProt P11362 (whole entry, looked up): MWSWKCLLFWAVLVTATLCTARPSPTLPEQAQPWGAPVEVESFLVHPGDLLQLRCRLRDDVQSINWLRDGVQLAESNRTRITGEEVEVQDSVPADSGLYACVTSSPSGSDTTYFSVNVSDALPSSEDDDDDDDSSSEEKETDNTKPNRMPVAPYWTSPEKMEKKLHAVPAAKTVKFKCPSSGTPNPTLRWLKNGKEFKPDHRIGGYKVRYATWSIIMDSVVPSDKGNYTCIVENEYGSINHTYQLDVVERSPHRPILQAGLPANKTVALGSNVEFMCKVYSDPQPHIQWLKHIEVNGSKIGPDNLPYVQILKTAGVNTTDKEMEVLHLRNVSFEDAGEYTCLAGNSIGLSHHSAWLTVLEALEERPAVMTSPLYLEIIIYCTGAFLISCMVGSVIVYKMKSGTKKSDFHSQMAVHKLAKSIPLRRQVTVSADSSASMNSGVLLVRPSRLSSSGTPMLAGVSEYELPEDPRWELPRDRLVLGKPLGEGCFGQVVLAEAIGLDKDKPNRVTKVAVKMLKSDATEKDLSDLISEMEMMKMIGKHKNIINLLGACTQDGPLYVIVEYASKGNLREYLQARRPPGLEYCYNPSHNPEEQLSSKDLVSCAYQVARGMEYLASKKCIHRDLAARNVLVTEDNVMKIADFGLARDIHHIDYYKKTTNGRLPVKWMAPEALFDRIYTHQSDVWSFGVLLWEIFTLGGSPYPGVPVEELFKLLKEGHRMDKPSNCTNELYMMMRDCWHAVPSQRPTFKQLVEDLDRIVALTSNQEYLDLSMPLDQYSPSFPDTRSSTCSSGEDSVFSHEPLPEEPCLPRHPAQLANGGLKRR
# Sequence of UniProt Q96SB4 (whole entry, looked up): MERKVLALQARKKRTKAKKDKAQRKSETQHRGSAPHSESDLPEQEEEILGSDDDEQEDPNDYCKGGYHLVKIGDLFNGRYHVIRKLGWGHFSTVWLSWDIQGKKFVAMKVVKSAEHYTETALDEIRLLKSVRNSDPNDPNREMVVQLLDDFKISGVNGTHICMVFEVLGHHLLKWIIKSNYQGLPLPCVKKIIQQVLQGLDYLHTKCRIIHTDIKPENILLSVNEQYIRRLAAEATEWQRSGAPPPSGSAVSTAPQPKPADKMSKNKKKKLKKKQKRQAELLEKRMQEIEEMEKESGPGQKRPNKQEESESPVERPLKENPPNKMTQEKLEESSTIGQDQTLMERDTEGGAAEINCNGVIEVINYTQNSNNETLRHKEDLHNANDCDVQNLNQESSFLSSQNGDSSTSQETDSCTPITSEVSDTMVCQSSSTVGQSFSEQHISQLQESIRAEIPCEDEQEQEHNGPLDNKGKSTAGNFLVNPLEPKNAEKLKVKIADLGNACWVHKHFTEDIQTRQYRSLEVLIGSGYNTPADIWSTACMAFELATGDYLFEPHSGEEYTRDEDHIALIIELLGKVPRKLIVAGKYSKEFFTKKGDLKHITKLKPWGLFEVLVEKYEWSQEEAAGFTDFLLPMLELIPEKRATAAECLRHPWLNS

# Set 1
# Host: mouse
# Medium: microsomes or S9
# Concentration: 2 µM
# Time: 0.5 h
Compound,remaining compound [%]
CCc1ccc(-c2cn(Cc3ncc[nH]3)nn2)nc1,73.2
CC(=O)Nc1cc(F)c(F)cc1NC(=O)CCNC(=O)C(C)(C)C,80.6
CC(CCc1ccccc1)NC(=O)c1noc(-c2ccc[nH]c2=O)n1 (stereo not drawn),33.5
CC(C)c1c(C(O)c2ccccc2)[nH]c(=O)[nH]c1=O (stereo not drawn),64.7
CCn1c(C(=O)N(C)c2cc(C)ccc2OC)cc2c(=O)oc3ccccc3c21,1.53

# Set 2
# SMILES: CC(=O)C1=C(C)N(c2cccc(C(F)(F)F)c2)C(=O)N[C@@H]1c1ccc(C#N)nc1
# Concentration: 1 µM
target,observed,technique,remaining binding [%]
"SRPK1 (Homo sapiens, UniProt Q96SB4)",cell-free assay,competition with immobilised ligand,67.5
"Tyrosine-protein kinase ABL1, non-phosphorylated (ABL1, Homo sapiens, UniProt P00519, F317L)",cell-free assay,competition with immobilised ligand,100
"HCK (Homo sapiens, UniProt P08631)",cell-free assay,competition with immobilised ligand,87.7
"TXK (Homo sapiens, UniProt P42681)",binding,competition with immobilised ligand,100
"MAP3K15 (Homo sapiens, UniProt Q6ZN16)",cell-free assay,competition with immobilised ligand,100
"DMPK (Homo sapiens, UniProt Q09013)",cell-free assay,competition with immobilised ligand,86.5
"EGFR (Homo sapiens, UniProt P00533, L858R)",cell-free assay,competition with immobilised ligand,80.8
"MAP3K6 (Homo sapiens, UniProt O95382)",cell-free assay,competition with immobilised ligand,91.2
"STK16 (Homo sapiens, UniProt O75716)",cell-free assay,competition with immobilised ligand,84.6
"SBK1 (Homo sapiens, UniProt Q52WX2)",cell-free assay,competition with immobilised ligand,100
"EGFR (Homo sapiens, UniProt P00533, del747-750/T751S)",cell-free assay,competition with immobilised ligand,100
"CDC42BPB (Homo sapiens, UniProt Q9Y5S2)",cell-free assay,competition with immobilised ligand,100
"STK32C (Homo sapiens, UniProt Q86UX6)",cell-free assay,competition with immobilised ligand,94.1
"Ribosomal protein S6 kinase alpha-6, C-terminal kinase domain (RPS6KA6, Homo sapiens, UniProt Q9UK32)",cell-free assay,competition with immobilised ligand,87.7
"MET (Homo sapiens, UniProt P08581, M1250T)",cell-free assay,competition with immobilised ligand,100
"ERN1 (Homo sapiens, UniProt O75460)",cell-free assay,competition with immobilised ligand,100
"DYRK1B (Homo sapiens, UniProt Q9Y463)",cell-free assay,competition with immobilised ligand,100
"CDK19 (Homo sapiens, UniProt Q9BWU1)",,competition binding,96.9
"FGFR1 (Homo sapiens, UniProt P11362)",cell-free assay,competition with immobilised ligand,100

# Set 3
# Cell line: A-375
# Concentration: 100 µM
# Time: 36 h
SMILES,viability [%]
CC(C)C[C@H](NC(=O)[C@H](CCc1ccccc1)NC(=O)CN1CCOCC1)C(=O)N[C@@H](Cc1ccccc1)C(=O)N[C@@H](CC(C)C)C(=O)[C@@]1(C)CO1,6.83
Cc1cn([C@H]2O[C@@H](CO)[C@H](O)[C@H]2F)c(=O)[nH]c1=O,102
Cc1cccc(C)c1NC(=O)c1ccccc1C(=O)O,106
O=C(N[C@H](CO)[C@H](O)c1ccc([N+](=O)[O-])cc1)C(Cl)Cl,110
NC(=O)c1ncn([C@@H]2O[C@H](CO)[C@@H](O)[C@H]2O)c1O,108
CO[C@@H]1[C@@H](O[C@@H]2O[C@H](C)[C@@H](O[C@H]3C[C@@](C)(O)[C@@H](O)[C@H](C)O3)[C@H](N(C)C)[C@H]2O)[C@@H](CC=O)C[C@@H](C)[C@@H](O[C@H]2CC[C@H](N(C)C)[C@@H](C)O2)/C=C/C=C/C[C@@H](C)OC(=O)C[C@H]1OC(C)=O,62.8

# Set 4
# Observed: AlphaScreen signal
# Technique: AlphaScreen counter screen
# Medium: His6 peptide without bromodomain
# Concentration: 50 µM
# Setting: assay interference check
Compound,inhibition
COc1ccc(Nc2nccc(-c3ccc(C#N)cc3)n2)cc1,21.1%
O=C1NC(=O)/C(=C/c2ccc(-c3nc4ccccc4s3)o2)S1,3.5%
O=[N+]([O-])c1ccc(-c2nc(-c3ccc(F)cc3)c(-c3ccncc3)[nH]2)cc1,57%
Cn1c(=O)c(F)c(Nc2ccc(I)cc2F)c2c(=O)n(C[C@@H](O)CO)cnc21,18.8%

# Set 5
# Cell line: mouse MPNST tumor cells
# Technique: high-content nuclear imaging
# Refers to: cell number
# Concentration: 10 µM
# Time: 12 h
# Setting: mean of 2 replicates
# Relative to: plate mean
# Reading: higher = more cells
SMILES,nuclei count [z-score]
CC1(C)S[C@@H]2[C@H](NC(=O)Cc3ccccc3)C(=O)N2[C@H]1C(=O)O,1.5
CC(C)N(CCCCOCC(=O)NS(C)(=O)=O)c1cnc(-c2ccccc2)c(-c2ccccc2)n1,-0.543
COC(=O)C1=C(C)NC(C)=C(C(=O)OCCSc2ccccc2)C1C (stereo not drawn),3.4
C[C@@H]1C[C@H]2[C@@H]3C[C@H](F)C4=CC(=O)C=C[C@]4(C)[C@@]3(Cl)[C@@H](O)C[C@]2(C)[C@H]1C(=O)COC(=O)C(C)(C)C,3.04
CCOC(=O)Nc1ccc2c(c1)N(C(=O)CCN1CCOCC1)c1ccccc1S2,0.275
